Experimental data collected from several papers.
Compare with care: the assays were run in different laboratories. Several values in a cell are separate wells, animals, samples, runs or records. ± marks the error that the study gave.
Abl1 SH2 domain: Tyrosine-protein kinase ABL1, SH2 domain (Abl1, Mus musculus, UniProt P00520)
UniProt P00520, sequence (whole entry, looked up): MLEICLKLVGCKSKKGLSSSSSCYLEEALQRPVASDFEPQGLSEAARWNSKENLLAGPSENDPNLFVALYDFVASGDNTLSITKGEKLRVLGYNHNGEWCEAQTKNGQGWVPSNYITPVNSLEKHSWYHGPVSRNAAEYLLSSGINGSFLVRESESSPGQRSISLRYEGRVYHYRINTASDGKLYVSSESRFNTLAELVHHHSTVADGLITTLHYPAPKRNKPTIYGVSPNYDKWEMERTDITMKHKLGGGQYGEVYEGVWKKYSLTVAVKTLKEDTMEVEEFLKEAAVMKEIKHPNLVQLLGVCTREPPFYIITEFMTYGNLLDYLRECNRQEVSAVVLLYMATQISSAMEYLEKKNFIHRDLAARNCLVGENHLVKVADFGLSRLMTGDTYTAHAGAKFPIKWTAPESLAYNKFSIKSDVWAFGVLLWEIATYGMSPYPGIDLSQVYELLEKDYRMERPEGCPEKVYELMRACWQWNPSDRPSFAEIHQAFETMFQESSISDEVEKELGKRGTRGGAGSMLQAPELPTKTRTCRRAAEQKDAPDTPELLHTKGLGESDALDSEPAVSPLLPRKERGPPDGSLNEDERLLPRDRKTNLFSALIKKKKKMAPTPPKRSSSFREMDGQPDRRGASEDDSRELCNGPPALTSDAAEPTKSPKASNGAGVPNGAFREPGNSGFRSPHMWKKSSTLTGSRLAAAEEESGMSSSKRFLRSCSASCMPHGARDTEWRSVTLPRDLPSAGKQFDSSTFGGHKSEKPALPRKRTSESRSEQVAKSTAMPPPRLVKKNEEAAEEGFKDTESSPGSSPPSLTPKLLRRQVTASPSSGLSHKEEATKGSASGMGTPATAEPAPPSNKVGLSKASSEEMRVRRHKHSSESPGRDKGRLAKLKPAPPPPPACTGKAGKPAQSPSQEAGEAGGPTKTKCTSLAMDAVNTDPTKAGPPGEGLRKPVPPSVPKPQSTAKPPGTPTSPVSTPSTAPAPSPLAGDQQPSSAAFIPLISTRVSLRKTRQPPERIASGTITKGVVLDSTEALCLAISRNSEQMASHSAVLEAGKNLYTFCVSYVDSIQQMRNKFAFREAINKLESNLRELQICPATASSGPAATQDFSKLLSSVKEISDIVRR
B1: Rad9 754–931 (S. cerevisiae); sequence looked up; chain GKDSKEQSYVFPEGIRTADNSFLSKDDIIFGNAVWCQYTWNYKFYPGILLEVDTNQDGCWIYFETGRSLTKDEDIYYLDIRIGDAVTFDGNEYVVVGLECRSHDLNIIRCIRGYDTVHLKKKNASGLLGKRTLIKALSSISLDLSEWAKRAKIILEDNEKNKGDAYRYLRHPIRGRKS
B2: Pcf11 CID D117K; chain DTEVIVKDFNSILEELTFNSRPIITTLTKLAEENISCAQYFVDAIESRIEKCMPKQKLYAFYALDSICKNVGSPYTIYFSRNLFNLYKRTYLLVDNTTRTKLINMFKLWLNPNKTGLPLFEGSALEKIEQFLIKAS
B3: α-TTP F169A; sequence looked up; chain MAEARSQPSAGPQLNALPDHSPLLQPGLAALRRRAREAGVPLAPLPLTDSFLLRFLRARDFDLDLAWRLLKNYYKWRAECPEISADLHPRSIIGLLKAGYHGVLRSRDPTGSKVLIYRIAHWDPKVFTAYDVFRVSLITSELIVQEVETQRNGIKAIFDLEGWQFSHAAQITPSVAKKIAAVLTDSFPLKVRGIHLINEPVIFHAVFSMIKPFLTEKIKERIHMHGNNYKQSLLQHFPDILPLEYGGEEFSMEDICQEWTNFIMKSEDYLSSISESIQ
B4: α-TTP F169D; sequence looked up; chain MAEARSQPSAGPQLNALPDHSPLLQPGLAALRRRAREAGVPLAPLPLTDSFLLRFLRARDFDLDLAWRLLKNYYKWRAECPEISADLHPRSIIGLLKAGYHGVLRSRDPTGSKVLIYRIAHWDPKVFTAYDVFRVSLITSELIVQEVETQRNGIKAIFDLEGWQFSHADQITPSVAKKIAAVLTDSFPLKVRGIHLINEPVIFHAVFSMIKPFLTEKIKERIHMHGNNYKQSLLQHFPDILPLEYGGEEFSMEDICQEWTNFIMKSEDYLSSISESIQ
B5: α-TTP M209A; sequence looked up; chain MAEARSQPSAGPQLNALPDHSPLLQPGLAALRRRAREAGVPLAPLPLTDSFLLRFLRARDFDLDLAWRLLKNYYKWRAECPEISADLHPRSIIGLLKAGYHGVLRSRDPTGSKVLIYRIAHWDPKVFTAYDVFRVSLITSELIVQEVETQRNGIKAIFDLEGWQFSHAFQITPSVAKKIAAVLTDSFPLKVRGIHLINEPVIFHAVFSAIKPFLTEKIKERIHMHGNNYKQSLLQHFPDILPLEYGGEEFSMEDICQEWTNFIMKSEDYLSSISESIQ
UniProt P33424, sequence (whole entry, looked up): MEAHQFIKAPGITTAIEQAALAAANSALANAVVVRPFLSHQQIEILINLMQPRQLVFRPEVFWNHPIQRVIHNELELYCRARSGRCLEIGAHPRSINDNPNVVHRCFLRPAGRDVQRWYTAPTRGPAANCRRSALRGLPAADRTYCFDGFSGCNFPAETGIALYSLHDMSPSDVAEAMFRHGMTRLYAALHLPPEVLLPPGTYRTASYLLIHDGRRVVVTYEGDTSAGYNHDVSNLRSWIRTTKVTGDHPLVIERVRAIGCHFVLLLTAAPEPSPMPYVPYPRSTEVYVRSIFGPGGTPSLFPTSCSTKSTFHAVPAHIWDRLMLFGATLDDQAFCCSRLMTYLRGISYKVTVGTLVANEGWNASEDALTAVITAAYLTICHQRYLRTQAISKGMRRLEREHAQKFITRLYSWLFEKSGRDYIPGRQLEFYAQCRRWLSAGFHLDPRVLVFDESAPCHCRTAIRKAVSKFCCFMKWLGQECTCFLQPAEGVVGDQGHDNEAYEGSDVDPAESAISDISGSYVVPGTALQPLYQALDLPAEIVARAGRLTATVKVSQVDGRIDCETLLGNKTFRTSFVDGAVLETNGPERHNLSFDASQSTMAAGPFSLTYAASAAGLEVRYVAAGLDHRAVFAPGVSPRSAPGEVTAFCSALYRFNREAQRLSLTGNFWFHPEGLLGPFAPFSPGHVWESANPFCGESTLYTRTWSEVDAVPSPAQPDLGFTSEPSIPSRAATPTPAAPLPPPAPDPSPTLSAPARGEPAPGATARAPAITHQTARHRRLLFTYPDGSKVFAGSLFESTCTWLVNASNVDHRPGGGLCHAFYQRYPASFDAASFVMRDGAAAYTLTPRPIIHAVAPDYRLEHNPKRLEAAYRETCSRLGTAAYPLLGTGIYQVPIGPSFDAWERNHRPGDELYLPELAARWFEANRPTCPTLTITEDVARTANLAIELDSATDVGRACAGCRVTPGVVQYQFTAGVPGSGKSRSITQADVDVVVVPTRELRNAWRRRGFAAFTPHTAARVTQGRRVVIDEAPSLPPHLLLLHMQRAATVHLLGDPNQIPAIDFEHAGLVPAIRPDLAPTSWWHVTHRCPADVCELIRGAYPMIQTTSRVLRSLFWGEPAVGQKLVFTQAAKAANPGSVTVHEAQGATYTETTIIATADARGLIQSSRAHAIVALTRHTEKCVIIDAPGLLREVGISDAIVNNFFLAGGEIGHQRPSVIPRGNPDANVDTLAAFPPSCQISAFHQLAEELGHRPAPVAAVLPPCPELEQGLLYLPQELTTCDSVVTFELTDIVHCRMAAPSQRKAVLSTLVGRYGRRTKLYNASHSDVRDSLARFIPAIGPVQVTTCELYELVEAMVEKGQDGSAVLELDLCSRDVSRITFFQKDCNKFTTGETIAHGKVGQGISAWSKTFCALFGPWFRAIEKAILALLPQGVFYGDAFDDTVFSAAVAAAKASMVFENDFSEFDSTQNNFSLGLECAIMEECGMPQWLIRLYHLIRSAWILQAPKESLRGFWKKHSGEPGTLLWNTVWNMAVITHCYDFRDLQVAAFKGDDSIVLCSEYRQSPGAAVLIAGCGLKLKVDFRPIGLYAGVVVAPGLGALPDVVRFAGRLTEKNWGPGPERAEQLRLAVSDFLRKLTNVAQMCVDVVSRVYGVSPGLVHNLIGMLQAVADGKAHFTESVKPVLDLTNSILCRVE
UniProt Q13126, sequence (whole entry, looked up): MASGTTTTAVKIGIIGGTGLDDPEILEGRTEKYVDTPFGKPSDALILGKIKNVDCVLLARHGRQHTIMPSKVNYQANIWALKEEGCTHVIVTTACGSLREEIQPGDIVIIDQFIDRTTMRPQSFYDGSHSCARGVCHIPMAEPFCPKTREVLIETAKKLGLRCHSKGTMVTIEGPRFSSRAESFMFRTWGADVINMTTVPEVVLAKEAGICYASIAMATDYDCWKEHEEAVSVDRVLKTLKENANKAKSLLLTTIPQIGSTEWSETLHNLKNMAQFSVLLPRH
UniProt Q15126, sequence (whole entry, looked up): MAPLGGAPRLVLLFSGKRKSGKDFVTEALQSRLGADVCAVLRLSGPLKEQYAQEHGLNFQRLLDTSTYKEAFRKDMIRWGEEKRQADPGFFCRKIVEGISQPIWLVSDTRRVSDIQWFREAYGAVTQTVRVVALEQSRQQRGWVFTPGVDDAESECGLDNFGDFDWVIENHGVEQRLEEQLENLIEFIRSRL
UniProt Q86SQ9, sequence (whole entry, looked up): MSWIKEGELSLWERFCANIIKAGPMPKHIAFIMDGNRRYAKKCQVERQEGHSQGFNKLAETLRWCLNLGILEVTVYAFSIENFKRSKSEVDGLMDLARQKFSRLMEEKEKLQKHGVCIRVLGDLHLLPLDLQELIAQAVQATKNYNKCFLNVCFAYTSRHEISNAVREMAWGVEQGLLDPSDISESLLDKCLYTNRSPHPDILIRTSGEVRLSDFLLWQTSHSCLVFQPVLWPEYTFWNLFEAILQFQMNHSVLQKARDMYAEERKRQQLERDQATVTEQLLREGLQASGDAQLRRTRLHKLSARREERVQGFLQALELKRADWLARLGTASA
UniProt P38998, sequence (whole entry, unmodified, looked up): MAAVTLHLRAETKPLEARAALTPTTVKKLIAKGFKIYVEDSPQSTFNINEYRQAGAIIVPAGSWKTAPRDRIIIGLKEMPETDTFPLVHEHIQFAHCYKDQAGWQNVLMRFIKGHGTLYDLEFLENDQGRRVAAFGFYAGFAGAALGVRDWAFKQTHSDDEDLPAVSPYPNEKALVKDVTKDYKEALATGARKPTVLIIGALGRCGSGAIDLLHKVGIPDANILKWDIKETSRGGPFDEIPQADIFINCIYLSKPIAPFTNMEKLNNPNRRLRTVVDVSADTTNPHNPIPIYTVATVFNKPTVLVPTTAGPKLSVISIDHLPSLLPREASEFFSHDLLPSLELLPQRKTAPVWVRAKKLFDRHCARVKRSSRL
UniProt P11509, sequence (whole entry, looked up): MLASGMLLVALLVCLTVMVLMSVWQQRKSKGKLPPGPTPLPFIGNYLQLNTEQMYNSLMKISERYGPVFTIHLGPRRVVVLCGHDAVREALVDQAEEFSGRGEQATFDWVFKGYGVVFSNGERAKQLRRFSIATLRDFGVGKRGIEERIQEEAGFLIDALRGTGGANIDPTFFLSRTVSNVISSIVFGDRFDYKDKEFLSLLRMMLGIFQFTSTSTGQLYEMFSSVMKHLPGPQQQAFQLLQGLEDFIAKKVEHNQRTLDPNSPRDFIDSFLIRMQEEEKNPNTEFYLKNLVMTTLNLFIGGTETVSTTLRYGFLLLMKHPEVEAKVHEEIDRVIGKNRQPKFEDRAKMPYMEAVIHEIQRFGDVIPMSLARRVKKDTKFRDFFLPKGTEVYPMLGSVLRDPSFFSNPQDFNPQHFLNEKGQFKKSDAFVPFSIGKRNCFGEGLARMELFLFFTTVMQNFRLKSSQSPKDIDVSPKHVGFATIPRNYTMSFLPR
UniProt P61823, sequence (whole entry, unmodified, looked up): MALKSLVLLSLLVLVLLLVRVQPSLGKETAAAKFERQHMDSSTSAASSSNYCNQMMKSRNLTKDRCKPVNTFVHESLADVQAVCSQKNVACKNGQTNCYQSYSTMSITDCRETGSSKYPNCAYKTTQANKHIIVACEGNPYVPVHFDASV
UniProt Q9H4A6, sequence (whole entry, looked up): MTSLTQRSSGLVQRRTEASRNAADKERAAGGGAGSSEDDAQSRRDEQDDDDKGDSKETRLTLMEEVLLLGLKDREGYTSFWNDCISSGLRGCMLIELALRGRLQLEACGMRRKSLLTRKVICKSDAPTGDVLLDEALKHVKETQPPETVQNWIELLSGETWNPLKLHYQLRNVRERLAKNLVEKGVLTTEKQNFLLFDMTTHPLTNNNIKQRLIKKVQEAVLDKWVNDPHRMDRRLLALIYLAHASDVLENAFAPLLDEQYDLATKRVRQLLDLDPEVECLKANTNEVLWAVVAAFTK

Nc1ncnc2c1ncn2[C@@H]1O[C@H](COP(=O)(O)OP(=O)(O)O)[C@@H](O)[C@H]1O — Kd (DBP5 (Saccharomyces cerevisiae, UniProt P20449); ADP binding, stopped-flow competition, FRET; pH 7.5, 25 °C, no Mg2+, EDTA, no RNA, 100 mM KCl, with: mantADP 40 µM): 800 ± 100 µM
O=C(O)c1ccc(F)cc1 — Kd (benA (Pseudomonas putida, UniProt Q88I40); substrate binding, substrate, stopped-flow single turnover; reduced enzyme; pH 6.8, 4 °C, with: O2 saturated): 226 ± 40 µM
B1 (Rad9 754–931) — Kd (single-stranded DNA 35 nt; binding, EMSA; 2 h, pH 8.0, 22 °C): 5.02 ± 0.67 µM
CCCCCCCC(=O)OC[C@H](COP(=O)(O)O[C@H]1[C@H](O)[C@@H](O)[C@H](OP(=O)(O)O)[C@@H](OP(=O)(O)O)[C@H]1O)OC(=O)CCCCCCC — Kd (Pleckstrin homology domain-containing family A member 7 (Homo sapiens, UniProt Q6IQ23); binding, ITC; pH 7.6): 8 µM
B2 (Pcf11 CID D117K) — Kd (Saccharomyces cerevisiae CTD-binding protein; fluorescence anisotropy competition; pH 7.4, first binding event, with: four-heptad Ser2P CTD peptide): 30 µM
C[n+]1cccc2cc(C=NNC(=O)c3ccc4ccc5ccc(C(=O)NN=Cc6ccc7c(ccc[n+]7C)c6)nc5c4n3)ccc21 — Kd (telomeric antiparallel G4 DNA; binding, native ESI-MS; 100 mM trimethylammonium acetate; 1 mM KCl): 0.054 µM
B3 (α-TTP F169A) — Kd (alpha-tocopherol transfer protein variants; binding, fluorescence titration; with: NBD-Toc): 0.07 µM
CCCCCCCCCCCCCCCC(=O)OC[C@H](COP(=O)(O)OC1[C@H](O)[C@H](O)C(OP(=O)(O)O)[C@H](O)[C@H]1O)OC(=O)CCCCCCCCCCCCCCC (stereo partly drawn) — Kd (Golgi phosphoprotein 3 (GOLPH3, Homo sapiens, UniProt Q9H4A6); surface plasmon resonance; DOPC vesicles 3 mol% lipid; pH 7.5, 25 °C): 2.6 ± 0.2 µM
NC(=O)C1=CN([C@@H]2O[C@H](COP(=O)(O)OP(=O)(O)OC[C@H]3O[C@@H](n4cnc5c(N)ncnc54)[C@H](O)[C@@H]3O)[C@@H](O)[C@H]2O)C=CC1 — Kd (LYS1 (Saccharomyces cerevisiae, UniProt P38998, K99M/C205S); substrate; pH 7.2, 25 °C, saccharopine formation direction): 310 ± 60 µM
Nc1ncnc2c1ncn2[C@@H]1O[C@H](CSCC[C@H](N)C(=O)O)[C@@H](O)[C@H]1O — Kd (tRNA (guanine(37)-N(1))-methyltransferase Trm5b (trm5b, Methanocaldococcus jannaschii, UniProt Q58293); methyl transfer burst amplitude, inhibitor, rapid quench; pH 8.0, 55 °C, with: tRNA(Cys), 25 µM AdoMet): 0.02 ± 0.005 µM
O=C(O)c1cccnc1Nc1cccc(C(F)(F)F)c1 — Kd (Chloride channel protein ClC-Ka, with barttin (Clcnka, Rattus norvegicus, UniProt Q06393, F256A); chloride current, blocker, voltage clamp; Xenopus oocytes; with barttin): ~142 µM
O=C1OC2(c3cc(I)c(O)c(I)c3Oc3c2cc(I)c(O)c3I)c2c(Cl)c(Cl)c(Cl)c(Cl)c21 — Kd (L-threonine aldolase (Thermotoga maritima, UniProt Q9X266); fluorescence anisotropy; single binding event): 76 µM
Cc1cn([C@H]2C=C[C@@H](COP(=O)(O)OP(=O)(O)OP(=O)(O)O)O2)c(=O)[nH]c1=O — Kd (Gag-Pol polyprotein, reverse transcriptase (gag-pol, Human immunodeficiency virus type 1 group M subtype B, UniProt P04585); nucleotide binding, pre-steady-state kinetics; with: 0.5 mM Mg2+): 7.6 ± 2.2 µM
B4 (α-TTP F169D) — Kd (alpha-tocopherol transfer protein variants; binding, fluorescence titration; with: NBD-Toc): 0.079 µM
C[C@]12CCC(=O)C=C1CC[C@@H]1[C@@H]2CC[C@@]2(C)[C@H]1CC[C@]2(O)C(=O)CO — Kd (mouse anti-cortisol Fab 17; native MS titration; 200 mM ammonium acetate; 1.5% DMSO, 0.5% methanol, with: Fab 100 nM): 0.28 ± 0.05 µM
COc1c(O)cc2cc1C[C@@H](C)C[C@H](OC)[C@H](O)[C@@H](C)/C=C(\C)[C@H](OC(N)=O)[C@@H](OC)CC/C=C(\C)C(=O)N2 — Kd (HSP90AA1 (Homo sapiens, UniProt P07900); cell-free assay): 0.026 µM
Nc1ncnc2c1nc(SCCNc1ccc([N+](=O)[O-])c3nonc13)n2[C@@H]1O[C@@H]2COP(=O)(O)O[C@H]2[C@H]1O — Kd (Cyclic nucleotide-gated potassium channel (Spirochaeta thermophila, UniProt G0GA88); binding, fluorescence titration; amphipol A8-35; single titration): 0.4 µM
CNc1ccccc1C(=O)OC/C(C)=C/CC/C(C)=C/COP(=O)(O)OP(=O)(O)O — Kd (DHDDS, with NgBR (Homo sapiens, UniProt Q86SQ9); binding, tryptophan-MANT FRET; pH 7.5, S1 site, no IPP): 1.06 ± 0.04 µM
Nc1nc2c(ncn2[C@H]2C[C@H](O)[C@@H](COP(=O)(O)OP(=O)(O)OP(=O)(O)O)O2)c(=O)[nH]1 — Kd (DNA polymerase eta (POLH, Homo sapiens, UniProt Q9Y253); substrate; pH 8.0, 37 °C, pre-steady-state, Mg2+, with: dNTP opposite O2-Me-dT template): 41 ± 12 µM
O=P(O)(O)O[C@@H]1[C@H](O)[C@H](O)[C@@H](OP(=O)(O)O)[C@H](OP(=O)(O)O)[C@H]1O — Kd (Abl1 SH2 domain; HSQC NMR titration; SH2 domain, no KCl): 85 ± 5 µM
phosphatidylinositol 4,5-bisphosphate — Kd (NF2, FERM domain (Homo sapiens, UniProt P35240); isothermal titration calorimetry; pH 7.5, 25 °C): 3.38 ± 0.799 µM
Nc1ncnc2nc[nH]c12 — Kd (MTAP (Homo sapiens, UniProt Q13126); binding, isothermal titration calorimetry; second site of three sequential): 2.1 ± 0.08 µM
O=C(NN=Cc1ccc(C[n+]2ccccc2)cc1)c1ccc2ccc3ccc(C(=O)NN=Cc4ccc(C[n+]5ccccc5)cc4)nc3c2n1 — Kd (G-quadruplex DNA 22CTA (human); binding, fluorimetric titration; 100 mM KCl buffer; pH 7.2, with: 5'-Cy5-labelled G4 2 nM): > 10 µM
C[C@@](O)(CCOP(=O)(O)O)CC(=O)O — Kd (PMVK (Homo sapiens, UniProt Q15126); binding, NMR; pH 6.5): 6 µM
N=C(N)Nc1ccc(OC(=O)c2ccc(NC(=N)N)cc2)cc1 — Kd (RNA with single 5'CAG/3'GAC motif; binding, fluorescence anisotropy competition): 0.06 ± 0.03 µM
B5 (α-TTP M209A) — Kd (alpha-tocopherol transfer protein variants; binding, fluorescence titration; with: NBD-Toc): 0.09 µM
CCCC(=O)OC[C@H](COP(=O)(O)O[C@H]1[C@H](O)[C@@H](OP(=O)(O)O)[C@H](OP(=O)(O)O)[C@@H](OP(=O)(O)O)[C@H]1O)OC(=O)CCC — Kd (Abl1 SH2 domain; HSQC NMR titration; SH2 domain, no KCl): 200 ± 7 µM
COCCOCCOCCOC(=O)c1ccc(-c2cc3ncc4[nH]c(=O)n([C@H](C)c5ccccn5)c4c3cc2OC)cc1 — Kd (Bromodomain factor 2 (Trypanosoma brucei brucei, UniProt Q38AM1); ITC; 15 °C): 66 ± 11 µM
CCCC(=O)OC[C@H](COP(=O)(O)O[C@@H]1[C@H](O)[C@H](O)[C@@H](OP(=O)(O)O)[C@H](OP(=O)(O)O)[C@H]1O)OC(=O)CCC — Kd (Abl1 SH2 domain; HSQC NMR titration; SH2 domain, no KCl): 130 ± 1 µM
O=Cc1ccccc1B(O)O — Kd (cysteine; thiazolidine formation, NMR competition): 4.6 µM
CC(=O)NC1C(O)CC(OC2C(O)C(CO)OC(OC3C(O)C(CO)OC(OC4C(O)C(CO)OC(OC5C(CO)OC(OC6C(CO)OC(O)C(O)C6O)C(O)C5O)C4O)C3NC(C)=O)C2O)(C(=O)O)OC1C(O)C(O)CO (stereo not drawn) — Kd (RNASE1 (Bos taurus, UniProt P61823, A45C); binding; pH 5): 19 µM
CC#Cc1ccc(-c2ccccc2)cc1 — Kd (Cytochrome P450 2A6 (CYP2A6, Homo sapiens, UniProt P11509); binding, absorbance; pH 7.4): 7 µM
NC(=O)c1nc(F)c[nH]c1=O — Kd (Non-structural polyprotein pORF1, RNA-dependent RNA polymerase (Hepatitis E virus genotype 1, UniProt P33424); binding, microscale thermophoresis): ~39 µM and 39 µM

A few entries again:
N=C(N)Nc1ccc(OC(=O)c2ccc(NC(=N)N)cc2)cc1 — Kd (RNA with single 5'CAG/3'GAC motif; binding, fluorescence anisotropy competition): 0.06 ± 0.03 µM
CCCCCCCCCCCCCCCC(=O)OC[C@H](COP(=O)(O)OC1[C@H](O)[C@H](O)C(OP(=O)(O)O)[C@H](O)[C@H]1O)OC(=O)CCCCCCCCCCCCCCC (stereo partly drawn) — Kd (Golgi phosphoprotein 3 (GOLPH3, Homo sapiens, UniProt Q9H4A6); surface plasmon resonance; DOPC vesicles 3 mol% lipid; pH 7.5, 25 °C): 2.6 ± 0.2 µM
C[C@]12CCC(=O)C=C1CC[C@@H]1[C@@H]2CC[C@@]2(C)[C@H]1CC[C@]2(O)C(=O)CO — Kd (mouse anti-cortisol Fab 17; native MS titration; 200 mM ammonium acetate; 1.5% DMSO, 0.5% methanol, with: Fab 100 nM): 0.28 ± 0.05 µM
B2 (Pcf11 CID D117K) — Kd (Saccharomyces cerevisiae CTD-binding protein; fluorescence anisotropy competition; pH 7.4, first binding event, with: four-heptad Ser2P CTD peptide): 30 µM
C[n+]1cccc2cc(C=NNC(=O)c3ccc4ccc5ccc(C(=O)NN=Cc6ccc7c(ccc[n+]7C)c6)nc5c4n3)ccc21 — Kd (telomeric antiparallel G4 DNA; binding, native ESI-MS; 100 mM trimethylammonium acetate; 1 mM KCl): 0.054 µM
